Results of several laboratories.
Numbered parts are unrelated; each lists some results of a single study. Changes are numbered by the printed parent chain.

Set 1
Target: ABI1, truncated, D143A, DHFR fusion (Arabidopsis thaliana)
Method: DHFR PCA, deep sequencing
Matrix: yeast
Notes: methotrexate growth selection, single substitutions
Together with: (+)-ABA 2500 µM
Relative to: wild-type fitted maximum
Reading: higher = stronger binding
Parent: PYL1, truncated, DHFR fusion (Arabidopsis thaliana); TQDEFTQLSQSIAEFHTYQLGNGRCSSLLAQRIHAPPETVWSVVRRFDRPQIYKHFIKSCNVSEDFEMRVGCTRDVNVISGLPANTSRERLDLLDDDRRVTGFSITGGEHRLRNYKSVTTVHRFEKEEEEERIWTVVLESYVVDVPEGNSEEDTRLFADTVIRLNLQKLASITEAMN; partner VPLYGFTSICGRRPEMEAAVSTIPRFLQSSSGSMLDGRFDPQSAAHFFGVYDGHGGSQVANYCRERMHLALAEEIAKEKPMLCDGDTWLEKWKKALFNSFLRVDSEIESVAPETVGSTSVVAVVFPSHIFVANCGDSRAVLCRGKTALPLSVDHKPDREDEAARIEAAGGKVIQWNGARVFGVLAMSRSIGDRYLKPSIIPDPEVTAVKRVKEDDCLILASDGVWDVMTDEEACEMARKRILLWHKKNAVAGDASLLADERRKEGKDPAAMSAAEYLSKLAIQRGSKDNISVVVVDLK
Change	relative binding score
D95Y	80.9%
E67D	98.3%
I105Q	8.2%
S42G	104%
S59A	97.4%
V137M	61.2%
V78C	97.2%
I79R	93.4%
R90D	69.9%
E139A	91.1%
G81D	80.6%
F47K	-23%
E152C	93.6%
V76H	51.8%
A158M	96.1%
C60Q	50%
V43H	91.8%
R155H	89.1%
P50N	1.28%
N149C	81.6%
G102K	97.8%

Set 2
Target: Hepatocyte nuclear factor 3-beta, forkhead domain (FOXA2, Homo sapiens, UniProt Q9Y261, residues 142-269)
Method: protein-binding microarray
Molecule type: double-stranded DNA, one strand shown
Matrix: in vitro
Tested at: not given
Notes: k-mer, scored over probes, only values ≥0.25
Reading: higher = stronger binding
Target sequence (chain): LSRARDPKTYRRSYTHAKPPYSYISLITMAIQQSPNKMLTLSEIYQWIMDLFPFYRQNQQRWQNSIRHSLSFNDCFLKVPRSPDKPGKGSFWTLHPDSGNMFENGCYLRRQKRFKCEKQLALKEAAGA
Strand	E-score
CAAATATG	0.351
ACTAACAA	0.299
CTTAACTA	0.274
ATGTTAAC	0.356
AACAACCA	0.28
ACATAAGG	0.289
ATACAGAT	0.283
ACTACATG	0.356
ATAGAACA	0.265
ATGATTAA	0.291
ATATGAAC	0.285
AGACAATA	0.285
AATAATAA	0.259
GTATGAAA	0.268
GGTAAACA	0.401
ACTAATTA	0.311
ATAGAAAC	0.301
TATAATAA	0.272
ATTGAGTA	0.342
ATAGTTAA	0.337
ATCAATCA	0.276

Set 3
Target: RING finger protein unkempt homolog, zinc fingers 1-6, GST-SBP tag (UNK, Homo sapiens, UniProt Q9C0B0, residues 30-357)
Method: RNA Bind-n-Seq
Molecule type: RNA
Matrix: in vitro
Tested at: not given
Notes: RNA with constant flanks, human-mouse chimeric sites, ends assumed
Relative to: input RNA pool
Reading: higher = stronger binding
All sequences stand within: GGGAGUUCUACAGUCCGACGAUC … CAACAGAGGAUUGAGCAUCA
Residues (chain): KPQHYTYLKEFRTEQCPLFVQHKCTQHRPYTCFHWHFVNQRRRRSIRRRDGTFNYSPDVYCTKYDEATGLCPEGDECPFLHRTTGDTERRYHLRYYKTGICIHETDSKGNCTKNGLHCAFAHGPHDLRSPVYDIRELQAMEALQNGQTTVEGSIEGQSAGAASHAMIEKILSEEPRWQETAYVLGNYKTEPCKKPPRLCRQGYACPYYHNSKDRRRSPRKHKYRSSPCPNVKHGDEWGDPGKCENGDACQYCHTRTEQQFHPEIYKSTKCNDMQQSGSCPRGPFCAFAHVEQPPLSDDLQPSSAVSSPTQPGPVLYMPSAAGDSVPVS
Strand	bound/input enrichment [ratio]
GAUAGGAAAAGCUUGUUGGAGACCCGCUUGCAUGUCACUGGCAGAGACCUGAGGUGUCAAAUAGCUGAAACUUUCGGAUUUCAAGAAAAUUACAUCAAGAUCGUAAUAAAUAAGAAACAG	0.256
AUGGAACAUUUCGAUGCAUCACUUAGUACCUAUUUCAAGGCCUUCCUGGGCCCCCGAGAUACAAGAGUCAAAGGAUGGUUCCUCCUGGACAAUUACAUCCCUACGUUUGUCUGUUCUGUU	0.254
GGGACUGAUUCAUCCCAAGGACAGGCCACCCCAUUUGAUGCCUGGACUGAUGACAGUAUGGAAGGGCCUAGUCAAAAUUUUGAAGCUGAGUCAAUUCAAGAUAAUGCGAGUAUGGAAGAG	0.483
CAGUCCCCGUGUCCCAGGGGACAAUGUUGUGAACAAAAACUCAAAGCGGACCCUCUACUGUAGUUGAUGAUUCUCGAAAUGUGCUAUUAUUGUUUGUCUUUUUUUUUUUUUUUUUAAAGA	1.86
CUGGGCUUCUCUUUUCUUUCUUUCCUUUAGGAAAAGCCUAAAGAUUAGGUUGUAAGAAAAACAGAAGCCAUGUUUCGAAGACCUGUGUUACAGGUAUUUCGUCAGUUUGUAAGACAUGAG	0.185
CAGCCUCAGAGCCCAGACUUCCUGGAUAUUACCAACCCCAAAGCCGUAUUAGAAAAUGCACUUAGGAACUUCGCCUGUCUGACGACUGGAGAUGUGAUUGCUAUCAACUACAAUGAGAAG	1.28
AGGAGGAGGUUAAAGGGUGAAAAUGGGGUGGAAGACUGUGUCAUGGCUCUGGAGACACUGUUCAGUGUCCUGCUUUCUCUGUGCAGACUUAUGGCUCCUUACACGCCCUUUCUGACUGAG	0.0783
CGCAGAAGGUUAAAGGGUGAGAGUGGGGUGGAAGACUGUGUCAUGGCUCUGGAGACACUGUUCAGUGUCCUGCUUUCUCUGUGCAGACUGAUGGCCCCCUACACACCCUUUCUGACUGAG	0.0613

Set 4
Target: Interferon regulatory factor 7, full length, phosphomimetic (IRF7, Homo sapiens, UniProt Q92985, residues 1-503, S101K/S471D/S472D/S475D/S476D/S477D/S483D/S484D/S487D)
UniProt Q92985, sequence (whole entry, unmodified, looked up): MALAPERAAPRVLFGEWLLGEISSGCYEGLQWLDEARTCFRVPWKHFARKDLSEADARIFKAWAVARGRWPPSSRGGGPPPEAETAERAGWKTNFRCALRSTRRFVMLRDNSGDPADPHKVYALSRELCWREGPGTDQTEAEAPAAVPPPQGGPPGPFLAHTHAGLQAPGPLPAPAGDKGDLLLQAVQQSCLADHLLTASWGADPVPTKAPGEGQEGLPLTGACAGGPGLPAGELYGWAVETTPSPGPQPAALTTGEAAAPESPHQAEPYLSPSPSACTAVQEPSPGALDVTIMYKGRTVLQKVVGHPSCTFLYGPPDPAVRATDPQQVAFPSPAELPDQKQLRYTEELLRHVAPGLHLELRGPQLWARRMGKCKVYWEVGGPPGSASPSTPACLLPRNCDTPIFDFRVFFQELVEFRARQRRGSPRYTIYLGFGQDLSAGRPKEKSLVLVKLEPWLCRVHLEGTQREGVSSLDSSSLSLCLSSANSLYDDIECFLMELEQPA
Method: protein-binding microarray
Molecule type: double-stranded DNA, one strand shown
Matrix: in vitro
Tested at: 250 nM
Notes: 60-bp whole probe
Together with: salmon DNA 0.4 mg/ml
Relative to: random background probes
Reading: higher = stronger binding
All sequences stand within: GCCTAGCAC … GTCTTGATTCGCTTGACGCTGCTG
Strand	log fluorescence
TTAGAACTGGGGTTTTGATTAGTGCTA	0.0442 z-score
TTAGGACTGGGGTATCGGGTAGTGCTA	-0.168 z-score
TTAGAACTGATTCTCGATTAGTGCTAG	0.833 z-score
TTAGGTTTCCTACTGCTTAAGTGCTAG	1.22 z-score
TTAGGTTTCGGGCTGGGTTAGTGCTAG	2.91 z-score
GACGAGTTCGGGACTGGAGACGTGCTA	-0.304 z-score
ATAGGACTGGGTTTCGGTTAGTGCTAG	6.58 z-score
GACGGCATCGGTTTCGGGACGTGCTAG	3.17 z-score
TTAGAACTAAGACTGGATTAGTGCTAG	0.103 z-score
TTAGGTCTCGATTTCGGTTAGTGCTAG	6.24 z-score
TCAATTTTCAGAATTTAACTGTGCTAG	0.25 z-score

Other studies, line by line
Molecule	target	assay	system	scale	endpoint	result
VSAVQKLDFSDTM	human cyclin B3	cyclin docking binding, deep mutational scanning	peptide, yeast cyclin B3-Cln2 system	direction not given	Cln2-subtracted enrichment score	-0.299

Some of these lines once more (set 1):
Change	relative binding score
E139A	91.1%
G81D	80.6%
F47K	-23%
E152C	93.6%
V76H	51.8%
A158M	96.1%
C60Q	50%
